# Published values collected from several papers.
# Each line is one published result; not all experiments were run side by side. Numbers after ± are the reported error.
# Nuclear receptor subfamily 2 group C member 2 ligand-binding domain: Nuclear receptor subfamily 2 group C member 2, ligand-binding domain (Homo sapiens, UniProt P49116)
# Sequence of UniProt P49116 (whole entry, looked up): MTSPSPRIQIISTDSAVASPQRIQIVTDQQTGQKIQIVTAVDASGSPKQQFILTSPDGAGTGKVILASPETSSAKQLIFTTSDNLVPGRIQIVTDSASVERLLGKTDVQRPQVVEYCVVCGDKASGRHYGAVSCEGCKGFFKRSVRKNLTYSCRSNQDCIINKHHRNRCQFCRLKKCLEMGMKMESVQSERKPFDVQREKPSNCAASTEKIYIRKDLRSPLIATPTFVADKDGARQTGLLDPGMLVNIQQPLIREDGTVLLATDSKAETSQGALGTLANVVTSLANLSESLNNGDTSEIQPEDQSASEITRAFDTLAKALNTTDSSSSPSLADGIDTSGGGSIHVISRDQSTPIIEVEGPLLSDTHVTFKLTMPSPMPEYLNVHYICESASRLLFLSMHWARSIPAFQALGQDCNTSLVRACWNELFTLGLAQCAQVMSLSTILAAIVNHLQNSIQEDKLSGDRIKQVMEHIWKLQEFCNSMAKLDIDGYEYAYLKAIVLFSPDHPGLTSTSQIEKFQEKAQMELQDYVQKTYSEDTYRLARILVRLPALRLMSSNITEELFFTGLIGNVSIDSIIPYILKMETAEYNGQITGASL
# YWHAG/RELA phospho-Ser45 p65 peptide: YWHAG/RELA, phospho-Ser45 p65 peptide (Homo sapiens, UniProt P61981+Q04206)
# Sequence of UniProt P61981 (whole entry, looked up): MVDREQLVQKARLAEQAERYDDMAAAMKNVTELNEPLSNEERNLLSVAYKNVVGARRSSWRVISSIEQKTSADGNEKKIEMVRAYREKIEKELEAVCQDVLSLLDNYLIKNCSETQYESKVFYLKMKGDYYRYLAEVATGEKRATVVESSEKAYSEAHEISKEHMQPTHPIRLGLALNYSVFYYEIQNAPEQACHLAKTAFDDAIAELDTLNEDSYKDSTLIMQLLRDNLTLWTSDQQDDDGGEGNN
# Sequence of UniProt Q04206 (whole entry, looked up): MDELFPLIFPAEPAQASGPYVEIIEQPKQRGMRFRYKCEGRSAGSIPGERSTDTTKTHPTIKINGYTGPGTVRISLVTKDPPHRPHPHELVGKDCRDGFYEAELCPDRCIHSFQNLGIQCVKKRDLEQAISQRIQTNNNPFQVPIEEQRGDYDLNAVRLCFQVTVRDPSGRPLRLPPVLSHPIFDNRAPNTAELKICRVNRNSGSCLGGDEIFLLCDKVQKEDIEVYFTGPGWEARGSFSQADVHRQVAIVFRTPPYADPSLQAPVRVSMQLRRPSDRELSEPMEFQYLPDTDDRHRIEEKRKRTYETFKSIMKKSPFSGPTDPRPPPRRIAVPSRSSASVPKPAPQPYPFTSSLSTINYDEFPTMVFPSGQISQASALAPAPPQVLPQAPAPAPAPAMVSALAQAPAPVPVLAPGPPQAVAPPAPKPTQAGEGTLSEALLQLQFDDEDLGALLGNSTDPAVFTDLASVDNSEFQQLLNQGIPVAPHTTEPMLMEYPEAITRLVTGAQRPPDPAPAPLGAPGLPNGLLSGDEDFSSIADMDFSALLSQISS
SMILES,tested on,assay,test system,conditions,scale,endpoint,value
CC1(C)S[C@@H]2[C@H](NC(=O)[C@H](N)c3ccccc3)C(=O)N2[C@H]1C(=O)O,Nuclear receptor subfamily 2 group C member 2 ligand-binding domain,SPR imaging,,,,Kd,0.916 nM
C=C1C(=O)O[C@@H]2C[C@@]3(C)CCC[C@H](C)C3=C[C@H]12,iPSC-derived cardiomyocytes,concentration-response fit,,concentration not given,baseline: vehicle,fitted top MyBP-C level,89%
CC[C@H](C)C(=O)O[C@H]1C[C@H](O)C=C2C=C[C@H](C)[C@H](CC[C@@H](O)C[C@@H](O)CC(=O)O)[C@H]21,COS-7,,,"10 µM, 24 h, 0.1% DMSO, unit not given",baseline: vehicle control,apoptotic cells,0.76 ± 0.16
CCCC(=O)O,OCI-Ly1,,,"0.1 µM, 120 h",,viability,185%
CC(C)NCCCn1c(Sc2cc3c(cc2I)OCO3)nc2c(N)ncnc21,human cells,plate-normalised,,"concentration not given, hit retest","baseline: vehicle controls, SDs below control",MyBP-C level change,6.28 SD
C#CCCC1(CCC(=O)N2[C@@H](c3ccc4c(c3)OCO4)c3[nH]c4ccccc4c3C[C@H]2C(=O)N2CCOCC2)N=N1,HeLa stably expressing GFP-LC3,,,"concentration not given, 4 h",,LC3 puncta formation,inactive
COc1ccc(CNC(=O)c2ccc(C=O)cc2)cc1,YWHAG/RELA phospho-Ser45 p65 peptide,"ternary complex formation, stabilizer, fluorescence anisotropy",,,,EC50,> 1 mM
CCn1cc(-c2cc(Cn3ccnc3)cc3c2CCN([C@H](c2cc(OC)ccn2)C2CC2)C3=O)c(C(F)(F)F)n1,KMS-11,"cell growth, inhibitor",,120 h,,EC50,> 0.03 mM
O=C(c1ccc(C(=O)N2CCC(N3CCCC3)CC2)c(Nc2ccccc2)c1)N1CCC(N2CCCC2)CC1,OCI-Ly1,,,"0.1 µM, 120 h",,viability,192%
Cn1cc(-c2ccc(-c3cncc(Cl)c3N3CCC4(CCNC4=O)CC3)cc2)cn1,COLO 205,"gene expression, microarray, measured: ARHGEF2 mRNA",,"concentration not given, 6 h",baseline: untreated cells,log2 fold change,1.22
Cc1cc(Nc2ncc(Cl)c(Nc3ccccc3S(=O)(=O)C(C)C)n2)c(OC(C)C)cc1C1CCNCC1,"Ba/F3 EML4-ALK v3, no mutation",cell viability,,,,Emax,99.5%
CCN(CC)CCCC(C)Nc1ccnc2cc(Cl)ccc12 (stereo not shown),COS-7,,,"100 µM, 24 h, 0.1% DMSO, unit not given",baseline: control,apoptosis,2.32 ± 0.33
CC(=O)Nc1cccc(-n2c(=O)n(C3CC3)c(=O)c3c(Nc4ccc(I)cc4F)n(C)c(=O)c(C)c32)c1,COLO 205 (BRAF V600E),,,100.00 nM,baseline: DMSO,fractional effect,92%
O=C(O)CCCc1ccccc1,OCI-Ly1,,,"0.1 µM, 120 h",,viability,193%
CN(C)c1ccc2nc3ccc(=[N+](C)C)cc-3sc2c1,mouse CA1 pyramidal neurons,patch clamp,hippocampal slices,10 µM,,mIPSC rise time 10-90%,increased
CCCc1cc(C)[nH]c(=O)c1CNC(=O)c1cc(-c2ccc(N3CCN(C(C)C)CC3)nc2)cc2c1cnn2C(C)C,OCI-Ly1,,,"1 µM, 120 h",,viability,76.3%
CCn1c2ccc(CNC)cc2c2ccc(-c3cc(C)cs3)cc21,U2OS p53 wild type,cell viability,,"10 µM, 72 h, highest concentration tested",,inhibition,30 to 40%
O=C(COc1cccc2c1C(=O)N(C1CCC(=O)NC1=O)C2=O)NCCOCCOCCNS(=O)(=O)Nc1cccc(-c2cn3cc(C(=O)NC4CCC4)ccc3n2)c1 (stereo not shown),MV4-11,"TMT proteomics, measured: NAA38 protein",,"10 µM, 4 h",baseline: DMSO,log2 fold change,0.032
CCCCc1nc(Cl)c(CO)n1Cc1ccc(-c2ccccc2-c2nn[nH]n2)cc1,human PBMC,"RNA-seq, measured: TNIP3 mRNA",,"10 µg/mL, 24 h",baseline: untreated control,log2 fold change,1.94
CC/C(=N\NC(=O)NCc1cccc(O)c1)c1ccc(O)c(C)c1O,SK-OV-3,"gene expression, microarray, measured: PLK2",,"10 µM, 24 h",baseline: DMSO,log ratio,4.52
CCCCN1C[C@H](O)[C@@H](O)[C@@H](O)[C@H]1CO,sample G patient fibroblasts,"acidic compartment staining, LysoTracker Red imaging",,216 h,,IC50,2900 nM
CC(C)NCC(O)c1ccc(O)c(O)c1 (stereo not shown),mouse ventricular cardiomyocytes,,,"dose not given, 0.019 s",,sarcomere length,1.8 µm
NC(=O)c1cccc(NC(=O)/C=C/c2c[nH]c3ccccc23)c1,OCI-Ly1,,,"0.1 µM, 120 h",,viability,112%
O=Cc1ccc([N+](=O)[O-])c(OC(=O)c2ccccc2Cl)c1,YWHAG/RELA phospho-Ser45 p65 peptide,"ternary complex formation, stabilizer, fluorescence anisotropy",,,,EC50,> 1 mM
Cc1ccc(NC(=O)CCCCCC(=O)Nc2ccccc2N)cc1,OCI-Ly1,,,"1 µM, 120 h",,viability,141%
O=C(/C=C/C=C/C=C/C1CCCCC1)NC1=C[C@@](O)(/C=C/C=C/C=C/C(=O)NC2=C(O)CCC2=O)[C@@H]2O[C@@H]2C1=O,WM266-4,CellTiter-Glo,,78 h,,GI50,20.2 µM
COc1cc2nc(N3CCCN(C)CC3)nc(NC3CCN(Cc4ccccc4)CC3)c2cc1OC,OCI-Ly1,,,"0.5 µM, 120 h",,viability,175%
Clc1ccc(C(Cn2ccnc2)OCc2ccsc2Cl)c(Cl)c1 (stereo not shown),Nuclear receptor subfamily 2 group C member 2 ligand-binding domain,binding,,,,Kd,0.0374 nM

# A few entries again:
SMILES,tested on,assay,test system,conditions,scale,endpoint,value
COc1cc2nc(N3CCCN(C)CC3)nc(NC3CCN(Cc4ccccc4)CC3)c2cc1OC,OCI-Ly1,,,"0.5 µM, 120 h",,viability,175%
COc1ccc(CNC(=O)c2ccc(C=O)cc2)cc1,YWHAG/RELA phospho-Ser45 p65 peptide,"ternary complex formation, stabilizer, fluorescence anisotropy",,,,EC50,> 1 mM
CCCCN1C[C@H](O)[C@@H](O)[C@@H](O)[C@H]1CO,sample G patient fibroblasts,"acidic compartment staining, LysoTracker Red imaging",,216 h,,IC50,2900 nM
